{"data": "Measured values gathered from unrelated publications", "note": "Parts stem from different laboratories: compare values within a part only. Substitutions count along the parent as printed."}
{"data": "Sample 1", "target": "CCNB3, cyclin fold, Cln2 fusion (human)", "method": "yeast growth competition, sequencing", "sample": "yeast", "notes": "weak parent motif", "relative to": "not given", "direction": "higher = stronger binding", "parent": "KIF20B docking peptide (human); KRAKRKLYTSEIS; partner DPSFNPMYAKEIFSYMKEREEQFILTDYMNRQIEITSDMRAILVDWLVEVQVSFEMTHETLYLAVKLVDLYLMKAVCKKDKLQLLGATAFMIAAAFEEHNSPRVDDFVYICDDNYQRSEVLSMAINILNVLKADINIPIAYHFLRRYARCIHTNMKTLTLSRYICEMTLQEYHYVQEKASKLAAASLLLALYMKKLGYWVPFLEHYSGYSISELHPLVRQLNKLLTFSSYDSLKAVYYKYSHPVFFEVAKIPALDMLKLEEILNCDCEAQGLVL"}
{"Variant": "KRAKRKLATSEIS [Y8A]", "normalised enrichment score": -0.253}
{"Variant": "KRAKRKAYTSEIS [L7A]", "normalised enrichment score": 0.119}
{"Variant": "KRAARKLYTSEIS [K4A]", "normalised enrichment score": 0.276}
{"Variant": "ARAKRKLYTSEIS [K1A]", "normalised enrichment score": 0.249}
{"Variant": "KRAKRALYTSEIS [K6A]", "normalised enrichment score": 0.352}
{"Variant": "KRAKAKLYTSEIS [R5A]", "normalised enrichment score": -0.435}
{"data": "Sample 2", "target": "Sal-like protein 4, full length isoform A (SALL4, Homo sapiens, UniProt Q9UJQ4, residues 1-1053)", "method": "universal PBM", "form": "double-stranded DNA, one strand shown", "sample": "in vitro", "concentration": "600 nM", "notes": "8-mer, flanks averaged, mean of replicates", "direction": "higher = stronger binding", "UniProt Q9UJQ4, sequence (whole entry, looked up)": "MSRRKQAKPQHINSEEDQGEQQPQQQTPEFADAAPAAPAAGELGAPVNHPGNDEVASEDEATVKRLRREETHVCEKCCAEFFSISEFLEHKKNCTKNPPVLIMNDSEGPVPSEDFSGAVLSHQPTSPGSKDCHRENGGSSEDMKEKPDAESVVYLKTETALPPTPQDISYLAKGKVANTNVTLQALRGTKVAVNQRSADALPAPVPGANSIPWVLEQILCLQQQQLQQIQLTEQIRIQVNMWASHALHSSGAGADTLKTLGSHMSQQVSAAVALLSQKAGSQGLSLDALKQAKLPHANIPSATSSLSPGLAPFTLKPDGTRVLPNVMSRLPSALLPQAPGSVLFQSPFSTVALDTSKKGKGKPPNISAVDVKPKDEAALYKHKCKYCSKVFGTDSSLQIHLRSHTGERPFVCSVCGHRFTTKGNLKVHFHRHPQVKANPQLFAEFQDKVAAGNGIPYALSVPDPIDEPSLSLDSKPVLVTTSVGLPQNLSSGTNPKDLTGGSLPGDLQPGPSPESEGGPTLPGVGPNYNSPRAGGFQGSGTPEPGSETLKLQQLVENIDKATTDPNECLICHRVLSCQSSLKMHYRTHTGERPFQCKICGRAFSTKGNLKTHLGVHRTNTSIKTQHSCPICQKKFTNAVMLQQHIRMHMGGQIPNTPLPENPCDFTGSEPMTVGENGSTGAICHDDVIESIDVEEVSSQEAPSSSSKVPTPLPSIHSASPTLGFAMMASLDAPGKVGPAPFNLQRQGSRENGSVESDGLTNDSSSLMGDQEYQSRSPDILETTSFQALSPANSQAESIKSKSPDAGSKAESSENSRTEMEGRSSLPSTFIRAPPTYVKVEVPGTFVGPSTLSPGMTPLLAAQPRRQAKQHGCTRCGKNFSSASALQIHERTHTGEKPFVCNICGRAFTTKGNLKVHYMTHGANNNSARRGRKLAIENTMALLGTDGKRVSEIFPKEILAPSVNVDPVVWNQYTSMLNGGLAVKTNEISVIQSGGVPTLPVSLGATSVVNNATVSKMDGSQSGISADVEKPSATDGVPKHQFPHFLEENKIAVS"}
{"Sequence": "CACAGTTA", "E-score": 0.141}
{"Sequence": "GCGTTAGA", "E-score": 0.0254}
{"Sequence": "ACTGCAAC", "E-score": -0.184}
{"Sequence": "AGGCGTCC", "E-score": -0.302}
{"Sequence": "ATTCTTGA", "E-score": 0.275}
{"Sequence": "ATAAGTAC", "E-score": 0.247}
{"Sequence": "AACGGATC", "E-score": 0.0576}
{"Sequence": "AAGAAGGT", "E-score": 0.0515}
{"Sequence": "AACAAAGA", "E-score": 0.192}
{"Sequence": "TCGTCGAA", "E-score": 0.0386}
{"Sequence": "AGCGTTTA", "E-score": -0.0652}
{"Sequence": "TGCTGACA", "E-score": 0.023}
{"Sequence": "AAAGGGAA", "E-score": 0.108}
{"Sequence": "GCGCATGA", "E-score": -0.235}
{"Sequence": "GACTGCAC", "E-score": -0.165}
{"Sequence": "ATAAAGGA", "E-score": 0.155}
{"Sequence": "GTGTATTA", "E-score": 0.318}
{"Sequence": "AGGTCCGC", "E-score": -0.397}
{"Sequence": "AGTTCTTG", "E-score": 0.115}
{"Sequence": "AAGCATAA", "E-score": 0.301}
{"Sequence": "CGTTCTGC", "E-score": -0.17}
{"Sequence": "CAGGGACG", "E-score": -0.179}
{"Sequence": "GTACCCTA", "E-score": -0.00272}
{"Sequence": "GCCAATTA", "E-score": 0.213}
{"Sequence": "AATGAGCG", "E-score": 0.128}
{"data": "Sample 3", "target": "Prothrombin, mature alpha-thrombin (F2, Homo sapiens, UniProt P00734)", "method": "aptamer microarray, sandwich", "form": "DNA with 2'F-ANA", "sample": "in vitro", "concentration": "200 nM", "notes": "whole 15-mer aptamer, many near background", "with": "Cy3 exosite-II aptamer, 400 nM", "direction": "higher = stronger binding", "sequence": "GGTTGGTGTGGTTGG"}
{"Modification": "2'F-ANA at 1 3 4 13 14 15", "mean fluorescence intensity": "61.5 a.u."}
{"Modification": "2'F-ANA at 2 4 5 7 8 9 10 11 13 15", "mean fluorescence intensity": "51 a.u."}
{"Modification": "2'F-ANA at 2 3 4 6 10 11 14 15", "mean fluorescence intensity": "170 a.u."}
{"Modification": "2'F-ANA at 3 6 9 11 12 13", "mean fluorescence intensity": "965 a.u."}
{"Modification": "2'F-ANA at 1 6 7 12 15", "mean fluorescence intensity": "336 a.u."}
{"Modification": "2'F-ANA at 3 6 10 11 12 13 14", "mean fluorescence intensity": "392 a.u."}
{"Modification": "2'F-ANA at 1 2 4 6 8 10 11 13 14 15", "mean fluorescence intensity": "60.1 a.u."}
{"Modification": "2'F-ANA at 1 3 4 8 10 11 12 15", "mean fluorescence intensity": "72.7 a.u."}
{"Modification": "2'F-ANA at 5 6 7 8 12 13 15", "mean fluorescence intensity": "193 a.u."}
{"Modification": "2'F-ANA at 1 2 6 7 10 13 14 15", "mean fluorescence intensity": "50.6 a.u."}
{"Modification": "2'F-ANA at 6 7 9 10 11 14", "mean fluorescence intensity": "98.9 a.u."}
{"Modification": "2'F-ANA at 1 2 4 5 10 11", "mean fluorescence intensity": "112 a.u."}
{"Modification": "2'F-ANA at 1 6 10 12 15", "mean fluorescence intensity": "118 a.u."}
{"Modification": "2'F-ANA at 2 4 5 6 7 14", "mean fluorescence intensity": "53.7 a.u."}
{"Modification": "2'F-ANA at 5 9 11 12 14 15", "mean fluorescence intensity": "46.3 a.u."}
{"Modification": "2'F-ANA at 1 2 4 5 6 7 9 14 15", "mean fluorescence intensity": "46.7 a.u."}
{"Modification": "2'F-ANA at 2 3 9 11 13", "mean fluorescence intensity": "707 a.u."}
{"Modification": "2'F-ANA at 1 2 4 5 6 7 8 12 13", "mean fluorescence intensity": "82.2 a.u."}
{"Modification": "2'F-ANA at 1 3 4 5 6 8 9 10 12 13", "mean fluorescence intensity": "51.6 a.u."}
{"Modification": "2'F-ANA at 3 5 8 9 10 13 14", "mean fluorescence intensity": "50.3 a.u."}
{"Modification": "2'F-ANA at 1 4 7 9 10", "mean fluorescence intensity": "51.7 a.u."}
{"Modification": "2'F-ANA at 1 2 3 4 6 7 9 11 12 14", "mean fluorescence intensity": "64.7 a.u."}
{"data": "Sample 4", "target": "Hepatocyte nuclear factor 3-alpha (Foxa1, Mus musculus, UniProt P35582, residues 1-468, full length assumed)", "method": "EMSA with sequencing", "form": "double-stranded DNA, one strand shown", "sample": "in vitro", "concentration": "10 and 20 nM", "notes": "whole designed probe, mean of two concentrations, ends assumed", "relative to": "negative control set to 0", "direction": "higher = stronger binding", "constant ends, left off below": "GTGAGCGGTGCCCATTGATGGGGAAC … TTTCACTGGGATCGTGGGGAC", "UniProt P35582, sequence (whole entry, looked up)": "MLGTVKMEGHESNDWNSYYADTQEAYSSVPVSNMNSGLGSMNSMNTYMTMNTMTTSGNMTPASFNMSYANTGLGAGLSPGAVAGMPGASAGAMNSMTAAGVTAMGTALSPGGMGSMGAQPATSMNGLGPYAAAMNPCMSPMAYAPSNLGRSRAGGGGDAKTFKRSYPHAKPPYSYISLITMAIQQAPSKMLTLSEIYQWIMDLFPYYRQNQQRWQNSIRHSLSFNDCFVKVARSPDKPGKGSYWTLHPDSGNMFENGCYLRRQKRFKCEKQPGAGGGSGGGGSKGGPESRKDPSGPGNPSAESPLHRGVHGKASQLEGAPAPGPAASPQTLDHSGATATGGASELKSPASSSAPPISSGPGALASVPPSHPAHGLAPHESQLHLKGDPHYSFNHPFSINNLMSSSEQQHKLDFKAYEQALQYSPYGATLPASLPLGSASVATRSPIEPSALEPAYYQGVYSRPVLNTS"}
{"Sequence": "TATTATGAGCTGGACCTTGCTTAGCCCCAGCTGGGTTCTTGCTTCCCATCCTCCTCCCTGCCTGCTGCTTCCCTGAGTCATGCCCACTGCAATGTAATTTACAGGGCAGCTCCTAGGAGCTTGCAATGACAGCAATAGTGGGAGGAACAAGAGGGAAGGGAGCAACTGTTTTGTTTTGTTCGAAATGGTGTCT", "normalised bound fraction [ratio]": -0.052}
{"Sequence": "GTAAAGCCAGTTACTTTTGTTATGTTTATGAATTCCTAGGCCTCTTGACAAACACTGAGGTTCTCAAACATTGGCAAACACAAGTCACATTAGGTAATCTTACAAATTCTTGGCCTTAGTTCCATATATTTTATTCTGAACAAATAGCCCTTAAGTCAAAATTGAGAAACAATGATTAGTAATAAGTTTTTAC", "normalised bound fraction [ratio]": 0.206}
{"Sequence": "ATCTTCCCCCTCTTCCTTGCCCCACCAGCTCACCTTCCCGGGTTATTTGCAGATAAAAAGTAGAATAAAGCCGGCATTCGTTAACCCTCTTCTGGCGCAAACTGCTGTTTGCTCTGGATGAATCATGGTCCTTTGGCGACGCCAGGCTCCGGGAGAGCAAAGCACCGTGTCAGGGCCATGATCCGGGGTGGCC", "normalised bound fraction [ratio]": 0.245}
{"Sequence": "CATTAGAGTCAAAGTTGTTAAGGGGAGCTAGTCATAGCTACCACGTGGCCAGGCATGTGGAACCAGACACCAGGCACACATCATGTAACATCATATTTACTTTAAATAATGCTGACAACCATGAATCATCAGACACACTACTTGAGATATATAGAATAACATTATTACCCAGTAAGTATGTGAACATTCCGAT", "normalised bound fraction [ratio]": 0.314}
{"Sequence": "CTTCCCACAGCCGACCTCCTCCGCCTGTCCCTCCCGCCACCCCGCCTGTCCCCCGCCTTTCCAGCAGCCTCCAAGTGGCAGGCTGGGTGCTGTGTCAATAAGGGTGTGTGCCCTGCCAGGTGCACGGGGCGGGTCGGGAACCGGTTACCTGGCGGGCGGGCGAGGCGCACCACCTGGCTCGTGCCTCACCGCG", "normalised bound fraction [ratio]": 0.284}
{"Sequence": "TACTGACTTTATAAGATTTATTTAGTTCCTTTTTTTGACAAAGGTAAAACTTCTTGGACGATTATTAAGGTGCCAGATAAATAGAAGGGGTTATATTTACACAATTGGCAATGTCTAGCATATAGTAGATCCCCAGTAGGAGGTTGCTTTTGTAACTGTTATTATAATGATCACGAACGCCATCATTCTCACC", "normalised bound fraction [ratio]": 0.328}
{"Sequence": "GAAATCAGATGGGAACAAACTATTCCAATATACAAATCAAATTTCAGAGTCTGAGTGTACACAGAAAAATTACTGGATATCCTGTTGGACTATGTACATAACAATGACACAGTGATTTATGAGGGTATGATGGGGCAGAGGGTAGCGGGTGATGTTGGAGTTGATTCATCACTTAAGCGCTAATCCATTCACC", "normalised bound fraction [ratio]": 0.245}
{"Sequence": "ATCTTCCCCCTCTTCCTTGCCCCACCAGCTCACCTACGGGGGTTATTTGCAGATAGGAAAATAAATAAAGCCGGCATTCGTTAACGCAGTTCACGCGCATACTGCTGTTTGCTCTGCATGAATCATGGTCCTTACGCGACGCCAGGCTCCGGGAGAGCAAAGCACCGTGTCAGGCGCATGATCCGGGCTCGCC", "normalised bound fraction [ratio]": 0.357}
{"note": "For quick reference, copied from above (sample 3):"}
{"Modification": "2'F-ANA at 1 2 4 5 6 7 9 14 15", "mean fluorescence intensity": "46.7 a.u."}
{"Modification": "2'F-ANA at 3 6 10 11 12 13 14", "mean fluorescence intensity": "392 a.u."}
{"Modification": "2'F-ANA at 1 4 7 9 10", "mean fluorescence intensity": "51.7 a.u."}
{"Modification": "2'F-ANA at 1 3 4 13 14 15", "mean fluorescence intensity": "61.5 a.u."}
{"Modification": "2'F-ANA at 3 5 8 9 10 13 14", "mean fluorescence intensity": "50.3 a.u."}
{"Modification": "2'F-ANA at 1 2 4 5 6 7 8 12 13", "mean fluorescence intensity": "82.2 a.u."}
{"Modification": "2'F-ANA at 1 2 4 5 10 11", "mean fluorescence intensity": "112 a.u."}
{"Modification": "2'F-ANA at 2 4 5 6 7 14", "mean fluorescence intensity": "53.7 a.u."}
{"Modification": "2'F-ANA at 6 7 9 10 11 14", "mean fluorescence intensity": "98.9 a.u."}
{"Modification": "2'F-ANA at 2 4 5 7 8 9 10 11 13 15", "mean fluorescence intensity": "51 a.u."}
